{"data": "Results of several laboratories", "note": "Lines come from different studies, so protocols differ. ± gives the spread as reported."}
{"Compound": "CN(C)CC1CCCCC1(O)c1cccc(O)c1 (centres unmarked)", "system": "Caco-2", "conditions": "100 µM, 3 h, pH 7.4", "endpoint": "Papp B→A", "value": "13.7 ×10⁻⁶ cm/s"}
{"Compound": "C[C@@](O)(C(F)F)[C@H](NC(=O)c1ccc(C#CC#CC2CC2)cc1)C(=O)NO", "system": "rat, plasma", "conditions": "intravenous, 40 mg/kg", "endpoint": "AUC(0-inf)", "value": "24000 ng·h/mL"}
{"Compound": "CCC(=O)N(C)c1ccc(Cl)c(Cl)c1", "tested on": "Salmonella typhimurium", "assay": "Ames test", "system": "TA1535", "conditions": "1.00 mg/plate, without S9 activation", "endpoint": "revertants", "value": "13 ± 2.5 revertants/plate"}
{"Compound": "O=C(O)CCC(NP(=O)(O)OCCC[C@@H](NC(=O)CCC(NC(=O)c1ccc([18F])cc1)C(=O)O)C(=O)O)C(=O)O (some centres unmarked)", "tested on": "PC-3 tumour model", "system": "host not given, kidney", "conditions": "intravenous, 2 h, tumour-bearing", "endpoint": "tracer uptake", "value": "5.46 %ID/g"}
{"Compound": "COc1ccc(CNc2nc(N3CCC[C@H]3CO)ncc2C(=O)NNC(=O)c2cnc(N3CCC[C@H]3CO)nc2NCc2ccc(OC)c(Cl)c2)cc1Cl", "tested on": "Salmonella typhimurium", "system": "TA97a", "conditions": "500 µg/plate, 48 h, together with: rat liver S9", "endpoint": "revertant count", "value": "137 ± 12"}
{"Compound": "CC[C@H](C)C(=O)N1CCC(NC(=O)Nc2ccc(OC(F)(F)F)c(F)c2)CC1", "system": "healthy volunteers", "conditions": "oral, 0.5 mg single dose", "endpoint": "subjects with headache TEAE", "value": "16.7%"}
{"Compound": "O=C(O)CCC(NP(=O)(O)OCCC[C@@H](NC(=O)CCC(NC(=O)CCCCCNC(=O)CCCCCNC(=O)c1ccc([18F])cc1)C(=O)O)C(=O)O)C(=O)O (some centres unmarked)", "tested on": "PC-3 tumour model", "system": "host not given, tumour", "conditions": "intravenous, 2 h, tumour-bearing", "endpoint": "tracer uptake", "value": "0.27 %ID/g"}
{"Compound": "COc1cc(C(=O)NCCOCCOCCOCCNC(=O)c2ccc([18F])nc2)ccc1NC(=O)C1NC(CC(C)(C)C)C(C#N)(c2ccc(Cl)cc2F)C1c1cccc(Cl)c1F (centres unmarked)", "tested on": "HepG2 tumour model", "system": "host not given, muscle", "conditions": "4 h, tumour-bearing", "endpoint": "tracer uptake", "value": "0.39 %ID/g"}
{"Compound": "CN[C@](C)(C[18F])C(=O)O", "tested on": "DU-145 tumour model", "system": "host not given, kidney", "conditions": "2 h, tumour-bearing", "endpoint": "tracer uptake", "value": "4.2 %ID/g"}
{"Compound": "O=C(O)CCC(NP(=O)(O)OCCC[C@@H](NC(=O)CCC(NC(=O)CCCCCNC(=O)c1ccc([18F])cc1)C(=O)O)C(=O)O)C(=O)O (some centres unmarked)", "tested on": "CWR22Rv1 tumour model", "system": "host not given, liver", "conditions": "intravenous, 1 h, tumour-bearing", "endpoint": "tracer uptake", "value": "0.49 %ID/g"}
{"Compound": "COc1ccc(CNc2nc(N3CCC[C@H]3CO)ncc2C(=O)NN)cc1Cl", "tested on": "Salmonella typhimurium", "system": "TA98", "conditions": "500 µg/plate, 48 h", "endpoint": "revertant count", "value": "43 ± 5"}
{"note": "Some of these lines once more:"}
{"Compound": "CC[C@H](C)C(=O)N1CCC(NC(=O)Nc2ccc(OC(F)(F)F)c(F)c2)CC1", "system": "healthy volunteers", "conditions": "oral, 0.5 mg single dose", "endpoint": "subjects with headache TEAE", "value": "16.7%"}
{"Compound": "O=C(O)CCC(NP(=O)(O)OCCC[C@@H](NC(=O)CCC(NC(=O)CCCCCNC(=O)CCCCCNC(=O)c1ccc([18F])cc1)C(=O)O)C(=O)O)C(=O)O (some centres unmarked)", "tested on": "PC-3 tumour model", "system": "host not given, tumour", "conditions": "intravenous, 2 h, tumour-bearing", "endpoint": "tracer uptake", "value": "0.27 %ID/g"}
